Results gathered from unrelated publications.
Parts stem from different laboratories: compare values within a part only.

Study 1
Target: Histone acetyltransferase KAT6A, both winged helices, GST fusion (KAT6A, Homo sapiens, UniProt Q92794, residues 1-181)
Technique: protein binding microarray
Molecule type: double-stranded DNA, one strand shown
Medium: in vitro
Tested at: not given
Notes: 8-mer, flanks averaged, mean of 2 arrays, mostly near background
Relative to: not given
Direction: higher = stronger binding
Residues (chain): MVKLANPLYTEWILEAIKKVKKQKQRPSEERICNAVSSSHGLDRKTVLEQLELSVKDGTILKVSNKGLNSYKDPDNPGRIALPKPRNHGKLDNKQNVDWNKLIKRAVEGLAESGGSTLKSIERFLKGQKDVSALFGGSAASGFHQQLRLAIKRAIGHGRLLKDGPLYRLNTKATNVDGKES
Oligonucleotide	E-score
AAGCGGCT	0.257
AGGGAGGA	-0.245
AACTGCGC	0.243
CAGAGGGA	-0.12
CAAATTCG	-0.0706

Study 2
Target: Interferon regulatory factor 7, full length, phosphomimetic (IRF7, Homo sapiens, UniProt Q92985, residues 1-503, S471D/S472D/S475D/S476D/S477D/S483D/S484D/S487D)
Chain of UniProt Q92985 (whole entry, unmodified, looked up): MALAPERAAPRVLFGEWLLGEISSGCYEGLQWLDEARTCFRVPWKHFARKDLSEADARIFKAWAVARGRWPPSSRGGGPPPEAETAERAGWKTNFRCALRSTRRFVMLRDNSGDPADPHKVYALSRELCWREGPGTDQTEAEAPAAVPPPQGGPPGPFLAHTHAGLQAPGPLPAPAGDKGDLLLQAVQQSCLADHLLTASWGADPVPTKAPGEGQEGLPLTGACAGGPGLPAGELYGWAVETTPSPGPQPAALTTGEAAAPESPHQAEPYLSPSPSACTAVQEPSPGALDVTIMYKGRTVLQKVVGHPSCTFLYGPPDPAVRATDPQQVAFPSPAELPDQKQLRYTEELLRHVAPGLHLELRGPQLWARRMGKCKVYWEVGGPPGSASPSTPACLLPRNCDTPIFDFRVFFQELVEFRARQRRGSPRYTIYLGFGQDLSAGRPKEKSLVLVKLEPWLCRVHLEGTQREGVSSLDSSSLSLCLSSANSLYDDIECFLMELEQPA
Technique: protein-binding microarray
Molecule type: double-stranded DNA, one strand shown
Medium: in vitro
Tested at: 2200 nM top
Notes: 60-bp whole probe
Added: salmon DNA 0.4 mg/ml
Relative to: random background probes
Direction: higher = stronger binding
All sequences stand within: GCCTAGCAC … GTCTTGATTCGCTTGACGCTGCTG
Oligonucleotide	fitted relative affinity
GACGATATCGGGTTTCCAGACGTGCTA	0.809 z-score
TTAGATATCGTGTTTCGATTAGTGCTA	2.77 z-score
GACGAATCCAGTTTCGAGACGTGCTAG	3.59 z-score
GACGAAATGAGTATCGAGACGTGCTAG	-0.0427 z-score
GAGGGGGCAGGGACTCAGGGGTGCTAG	0.487 z-score

Study 3
Target: Sal-like protein 4, full length isoform A (SALL4, Homo sapiens, UniProt Q9UJQ4, residues 1-1053)
Chain of UniProt Q9UJQ4 (whole entry, looked up): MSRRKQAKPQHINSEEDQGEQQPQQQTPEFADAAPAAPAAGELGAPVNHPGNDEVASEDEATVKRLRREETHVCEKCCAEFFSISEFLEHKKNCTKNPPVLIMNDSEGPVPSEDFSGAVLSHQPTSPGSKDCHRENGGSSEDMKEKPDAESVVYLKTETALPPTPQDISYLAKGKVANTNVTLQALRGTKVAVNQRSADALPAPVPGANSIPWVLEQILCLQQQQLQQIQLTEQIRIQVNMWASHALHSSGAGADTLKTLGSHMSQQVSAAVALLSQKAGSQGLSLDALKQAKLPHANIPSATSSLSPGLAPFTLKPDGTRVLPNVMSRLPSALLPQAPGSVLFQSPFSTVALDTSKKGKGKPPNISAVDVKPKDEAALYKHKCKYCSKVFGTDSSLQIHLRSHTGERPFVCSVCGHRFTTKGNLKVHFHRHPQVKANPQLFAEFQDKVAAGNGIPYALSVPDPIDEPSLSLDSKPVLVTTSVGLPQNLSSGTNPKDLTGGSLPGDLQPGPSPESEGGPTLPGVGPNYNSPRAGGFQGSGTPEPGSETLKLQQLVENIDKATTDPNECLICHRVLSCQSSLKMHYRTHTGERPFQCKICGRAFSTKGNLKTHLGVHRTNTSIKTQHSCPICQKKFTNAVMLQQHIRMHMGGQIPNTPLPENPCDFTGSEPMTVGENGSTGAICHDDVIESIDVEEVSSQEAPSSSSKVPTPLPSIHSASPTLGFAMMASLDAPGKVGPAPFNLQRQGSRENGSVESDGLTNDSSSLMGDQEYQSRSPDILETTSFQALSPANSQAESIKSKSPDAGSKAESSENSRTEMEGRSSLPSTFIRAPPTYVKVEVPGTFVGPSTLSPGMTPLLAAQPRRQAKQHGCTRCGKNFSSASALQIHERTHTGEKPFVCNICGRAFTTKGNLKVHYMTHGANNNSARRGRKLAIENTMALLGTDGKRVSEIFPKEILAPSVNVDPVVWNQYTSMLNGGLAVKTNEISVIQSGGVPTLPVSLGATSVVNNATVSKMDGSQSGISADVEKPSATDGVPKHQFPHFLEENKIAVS
Technique: universal PBM
Molecule type: double-stranded DNA, one strand shown
Medium: in vitro
Tested at: 600 nM
Notes: 8-mer, flanks averaged, mean of replicates
Direction: higher = stronger binding
Oligonucleotide	E-score
GCTCTGAA	-0.0659
CCGGTATC	-0.182
GGCTCCTA	-0.196
CCCCCGAA	-0.147
ACATTCCG	-0.0876

Mixed results
Molecule	target	assay	test system	conditions	scale	endpoint	value
PhoQ, residues 284 288 289 292 302 303 AANNSF	PhoP, residues 12 14 15 18 19 SEGLL (Escherichia coli, UniProt P23836)	Sort-seq, measured: YFP reporter	E. coli	PhoQ-PhoP variant library, added: 10 µM Mg2+	relative to: high Mg2+ state, higher = stronger signaling	fold induction	16.6

For quick reference, copied from above (study 1):
Oligonucleotide	E-score
CAGAGGGA	-0.12
CAAATTCG	-0.0706
